Results from different studies.
Compare with care: the assays were run in different laboratories.

With `C[C@@H](O)[C@H]1C(=O)N2C(C(=O)O)=C(S[C@@H]3CN[C@H](C(=O)N(C)C)C3)[C@H](C)[C@H]12` the MIC was ≤ 0.5 µg/mL (Salmonella enterica serovar Uganda; broth microdilution; clinical isolate RKI-No 206/14).
The MIC of `CN(C/C=C/C#CC(C)(C)C)Cc1cccc2ccccc12` is reported as 16 µg/mL (Aspergillus fumigatus; broth microdilution; BNCC 122691).
`CNC(C)C1CCC(N)C(OC2C(N)CC(N)C(OC3OCC(C)(O)C(NC)C3O)C2O)O1` (stereo not drawn) has an MIC of 2 µg/mL (Pseudomonas aeruginosa; clinical isolate RKI-No_502/15).
The MIC of `CC1(C)SC2C(NC(=O)C(NC(=O)C3=C(O)C4CCCN4C3=O)c3ccccc3)C(=O)N2C1C(=O)O` (stereo not drawn) is reported as 12.5 µg/mL (Escherichia coli; broth microdilution; ATCC 25922 wild type; no clavulanic acid).
`CCCCCCCCCC(=O)N[C@@H](Cc1c[nH]c2ccccc12)C(=O)N[C@H](CC(N)=O)C(=O)N[C@@H](CC(=O)O)C(=O)N[C@@H]1C(=O)NCC(=O)N[C@@H](CCCN)C(=O)N[C@@H](CC(=O)O)C(=O)N[C@H](C)C(=O)N[C@@H](CC(=O)O)C(=O)NCC(=O)N[C@H](CO)C(=O)N[C@@H]([C@H](C)CC(=O)O)C(=O)N[C@@H](CC(=O)c2ccccc2N)C(=O)O[C@@H]1C` gave an MIC of 1 µg/mL (Staphylococcus aureus; SH1000; added: N-acetylsphingosine, molar ratio 1).
For `CC1(C)S[C@@H]2[C@H](NC(=O)[C@H](N)c3ccccc3)C(=O)N2[C@H]1C(=O)O`, the MIC was > 16 µg/mL (Pseudomonas aeruginosa; broth microdilution; clinical isolate RKI-No 485/15-1).
For `Cc1c(CN(C)C(=O)/C=C/c2cnc3c(c2)CC(NC(=O)OC(C)(C)C)C(=O)N3)oc2ccccc12` (stereo not drawn), the MIC was > 32 µg/mL (Acinetobacter baumannii; broth microdilution; AR-0299).
The MIC of `C=C[C@]1(C)C[C@@H](OC(=O)CSCCN(CC)CC)[C@]2(C)[C@H](C)CC[C@]3(CCC(=O)[C@H]32)[C@@H](C)[C@@H]1O` is reported as 0.00781 µg/mL (Mycoplasma gallisepticum; broth microdilution; S6 (ATCC 15302)).
`CC(=O)NC[C@H]1CN(c2ccc(N3CCOCC3)c(F)c2)C(=O)O1` has an MIC of 2.96 µM (Enterococcus faecium; ATCC 700221).
For `N=C(N)c1ccc(OCc2cccc(COc3ccc(C(=N)N)cc3)c2)cc1`, the MIC was 50 µg/mL (Escherichia coli; BW25113; in combination, lowest-FICI combination, added: vancomycin).
`Cc1ccc(CCC(=O)Nc2nnc(S(N)(=O)=O)s2)cc1` gave an MIC of 0.046 µM (Enterococcus faecium; NR-31970).
`N=C(N)c1ccc(OCc2cc(COc3ccc(C(=N)N)cc3)cc(-c3ccccc3)c2)cc1` has an MIC of > 100 µg/mL (Escherichia coli; BW25113; compound alone, added: erythromycin checkerboard).

Some of these lines once more:
The MIC of `C=C[C@]1(C)C[C@@H](OC(=O)CSCCN(CC)CC)[C@]2(C)[C@H](C)CC[C@]3(CCC(=O)[C@H]32)[C@@H](C)[C@@H]1O` is reported as 0.00781 µg/mL (Mycoplasma gallisepticum; broth microdilution; S6 (ATCC 15302)).
